{"data": "Measurements from different studies", "note": "A part holds a random share of what one study measured.", "sequence of UniProt Q02763 (whole entry, looked up)": "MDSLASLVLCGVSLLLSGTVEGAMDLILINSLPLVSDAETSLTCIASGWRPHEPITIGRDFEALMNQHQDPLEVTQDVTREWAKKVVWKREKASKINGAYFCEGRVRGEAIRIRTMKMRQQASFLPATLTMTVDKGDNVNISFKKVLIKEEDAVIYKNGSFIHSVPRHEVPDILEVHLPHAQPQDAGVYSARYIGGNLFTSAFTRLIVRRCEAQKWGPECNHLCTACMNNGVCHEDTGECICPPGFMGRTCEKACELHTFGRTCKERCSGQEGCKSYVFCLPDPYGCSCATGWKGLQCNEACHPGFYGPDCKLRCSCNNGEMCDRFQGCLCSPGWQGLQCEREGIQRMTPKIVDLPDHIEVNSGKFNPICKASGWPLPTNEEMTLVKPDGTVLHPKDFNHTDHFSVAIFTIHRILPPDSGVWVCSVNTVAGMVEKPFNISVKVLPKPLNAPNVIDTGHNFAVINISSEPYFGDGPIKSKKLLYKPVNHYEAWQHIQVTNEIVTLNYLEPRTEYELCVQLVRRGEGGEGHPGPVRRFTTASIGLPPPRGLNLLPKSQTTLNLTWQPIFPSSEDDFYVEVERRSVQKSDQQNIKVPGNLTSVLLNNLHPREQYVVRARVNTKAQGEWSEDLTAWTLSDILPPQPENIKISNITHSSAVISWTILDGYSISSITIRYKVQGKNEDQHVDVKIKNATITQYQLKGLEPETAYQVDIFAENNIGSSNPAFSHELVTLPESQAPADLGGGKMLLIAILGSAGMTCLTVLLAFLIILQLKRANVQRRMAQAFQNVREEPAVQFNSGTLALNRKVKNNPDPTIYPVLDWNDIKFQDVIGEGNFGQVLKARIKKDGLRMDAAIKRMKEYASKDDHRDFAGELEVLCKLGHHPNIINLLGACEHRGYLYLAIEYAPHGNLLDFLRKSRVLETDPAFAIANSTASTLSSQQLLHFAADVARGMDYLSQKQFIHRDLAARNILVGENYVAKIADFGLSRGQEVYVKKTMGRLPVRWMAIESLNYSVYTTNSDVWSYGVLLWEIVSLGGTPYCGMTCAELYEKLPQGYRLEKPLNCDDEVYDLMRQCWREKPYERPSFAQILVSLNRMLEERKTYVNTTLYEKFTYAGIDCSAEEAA", "sequence of UniProt Q15349 (whole entry, looked up)": "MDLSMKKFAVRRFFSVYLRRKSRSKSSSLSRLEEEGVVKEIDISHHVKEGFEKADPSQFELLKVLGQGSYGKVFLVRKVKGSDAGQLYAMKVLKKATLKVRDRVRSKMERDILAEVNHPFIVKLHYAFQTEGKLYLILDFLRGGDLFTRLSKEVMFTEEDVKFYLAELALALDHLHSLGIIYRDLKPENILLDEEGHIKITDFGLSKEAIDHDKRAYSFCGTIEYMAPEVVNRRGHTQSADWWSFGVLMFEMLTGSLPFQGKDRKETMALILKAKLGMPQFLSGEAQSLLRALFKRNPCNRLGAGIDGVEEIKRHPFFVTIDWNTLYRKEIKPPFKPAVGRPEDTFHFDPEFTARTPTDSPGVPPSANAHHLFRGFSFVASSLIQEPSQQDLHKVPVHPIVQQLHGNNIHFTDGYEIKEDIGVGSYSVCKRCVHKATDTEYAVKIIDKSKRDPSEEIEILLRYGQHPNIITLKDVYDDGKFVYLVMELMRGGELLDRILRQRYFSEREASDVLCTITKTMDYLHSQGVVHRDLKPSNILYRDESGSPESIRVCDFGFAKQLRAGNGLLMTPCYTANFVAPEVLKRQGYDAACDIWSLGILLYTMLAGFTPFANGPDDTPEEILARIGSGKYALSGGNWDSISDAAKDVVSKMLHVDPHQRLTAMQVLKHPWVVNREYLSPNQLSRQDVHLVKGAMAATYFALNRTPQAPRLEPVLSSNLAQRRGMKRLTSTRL", "sequence of UniProt P49137 (whole entry, looked up)": "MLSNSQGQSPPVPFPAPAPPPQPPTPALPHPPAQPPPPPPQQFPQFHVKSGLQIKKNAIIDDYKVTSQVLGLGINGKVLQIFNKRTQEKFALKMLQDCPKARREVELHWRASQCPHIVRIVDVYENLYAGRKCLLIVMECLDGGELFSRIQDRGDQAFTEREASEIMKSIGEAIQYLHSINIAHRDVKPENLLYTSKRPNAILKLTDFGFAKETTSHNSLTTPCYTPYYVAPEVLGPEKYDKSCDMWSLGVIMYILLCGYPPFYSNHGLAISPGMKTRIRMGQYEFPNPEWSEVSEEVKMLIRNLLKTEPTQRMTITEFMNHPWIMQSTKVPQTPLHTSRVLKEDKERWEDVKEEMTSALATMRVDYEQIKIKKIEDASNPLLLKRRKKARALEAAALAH", "sequence of UniProt P29320 (whole entry, looked up)": "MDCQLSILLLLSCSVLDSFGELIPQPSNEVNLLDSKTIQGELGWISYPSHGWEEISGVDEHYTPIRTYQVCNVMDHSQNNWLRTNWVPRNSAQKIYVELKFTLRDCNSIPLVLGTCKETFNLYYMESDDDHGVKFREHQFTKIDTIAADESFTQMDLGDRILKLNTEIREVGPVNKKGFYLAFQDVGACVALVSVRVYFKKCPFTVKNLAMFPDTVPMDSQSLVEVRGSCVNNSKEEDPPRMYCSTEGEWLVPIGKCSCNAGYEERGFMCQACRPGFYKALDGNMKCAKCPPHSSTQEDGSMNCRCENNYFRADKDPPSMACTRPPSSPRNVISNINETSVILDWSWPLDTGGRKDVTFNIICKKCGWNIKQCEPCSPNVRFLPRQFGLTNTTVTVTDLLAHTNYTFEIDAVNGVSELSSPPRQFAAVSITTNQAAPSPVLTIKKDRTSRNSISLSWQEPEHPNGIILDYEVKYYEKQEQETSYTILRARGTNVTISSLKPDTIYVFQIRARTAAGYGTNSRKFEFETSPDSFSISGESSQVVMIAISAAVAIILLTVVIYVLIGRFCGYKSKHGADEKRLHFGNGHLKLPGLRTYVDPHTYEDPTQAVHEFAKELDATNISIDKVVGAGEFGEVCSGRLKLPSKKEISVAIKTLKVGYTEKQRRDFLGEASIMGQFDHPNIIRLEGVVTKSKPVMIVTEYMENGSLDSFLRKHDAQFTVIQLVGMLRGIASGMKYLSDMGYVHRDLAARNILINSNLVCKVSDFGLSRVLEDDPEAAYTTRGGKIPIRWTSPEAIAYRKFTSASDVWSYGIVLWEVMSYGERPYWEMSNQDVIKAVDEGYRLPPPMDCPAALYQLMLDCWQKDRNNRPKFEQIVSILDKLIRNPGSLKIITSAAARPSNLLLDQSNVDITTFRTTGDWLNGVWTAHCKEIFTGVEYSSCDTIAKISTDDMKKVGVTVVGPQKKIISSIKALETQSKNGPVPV", "sequence of UniProt P11362 (whole entry, looked up)": "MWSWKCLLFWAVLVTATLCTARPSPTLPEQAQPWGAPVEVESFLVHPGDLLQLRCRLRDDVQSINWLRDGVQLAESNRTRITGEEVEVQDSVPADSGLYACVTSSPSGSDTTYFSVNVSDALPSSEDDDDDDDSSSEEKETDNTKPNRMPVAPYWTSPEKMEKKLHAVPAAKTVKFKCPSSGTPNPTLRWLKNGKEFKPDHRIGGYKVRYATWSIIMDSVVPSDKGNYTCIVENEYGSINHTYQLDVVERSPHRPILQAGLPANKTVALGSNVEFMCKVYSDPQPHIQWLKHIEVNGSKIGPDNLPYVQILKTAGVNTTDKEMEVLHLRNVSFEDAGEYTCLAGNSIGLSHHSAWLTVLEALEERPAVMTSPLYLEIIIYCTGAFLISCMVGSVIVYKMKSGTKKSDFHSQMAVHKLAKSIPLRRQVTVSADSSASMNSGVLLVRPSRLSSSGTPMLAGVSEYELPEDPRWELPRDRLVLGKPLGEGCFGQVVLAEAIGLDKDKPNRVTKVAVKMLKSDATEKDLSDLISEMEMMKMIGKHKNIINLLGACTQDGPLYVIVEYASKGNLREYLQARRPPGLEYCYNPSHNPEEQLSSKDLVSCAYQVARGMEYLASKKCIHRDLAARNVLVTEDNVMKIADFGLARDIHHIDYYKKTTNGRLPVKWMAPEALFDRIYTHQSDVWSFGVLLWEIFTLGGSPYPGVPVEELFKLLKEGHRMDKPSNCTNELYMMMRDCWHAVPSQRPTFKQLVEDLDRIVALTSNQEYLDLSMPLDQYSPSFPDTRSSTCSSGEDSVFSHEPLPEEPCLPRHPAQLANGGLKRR", "sequence of UniProt Q9HC98 (whole entry, looked up)": "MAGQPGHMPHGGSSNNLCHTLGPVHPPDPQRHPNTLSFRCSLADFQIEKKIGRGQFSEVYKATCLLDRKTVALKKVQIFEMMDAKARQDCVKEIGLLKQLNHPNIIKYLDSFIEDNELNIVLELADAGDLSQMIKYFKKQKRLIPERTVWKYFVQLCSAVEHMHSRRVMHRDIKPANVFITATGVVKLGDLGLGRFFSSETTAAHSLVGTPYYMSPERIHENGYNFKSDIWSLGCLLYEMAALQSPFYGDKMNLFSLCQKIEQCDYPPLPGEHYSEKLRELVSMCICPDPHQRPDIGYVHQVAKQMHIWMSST"}
{"data": "Study 1", "target": "Transcription factor SOX-2, HMG box (Sox2, Mus musculus, UniProt P48432, residues 41-119)", "technique": "Spec-seq", "molecule type": "double-stranded DNA, one strand shown", "medium": "in vitro", "tested at": "not given", "notes": "whole probe, mean of replicates", "reference": "not given", "direction": "lower = stronger binding", "constant ends, left off below": "GAGTCGTCTCGTCAGCAC … CCGTAGAGCACTCAGGTC", "sequence of UniProt P48432 (41-119, looked up)": "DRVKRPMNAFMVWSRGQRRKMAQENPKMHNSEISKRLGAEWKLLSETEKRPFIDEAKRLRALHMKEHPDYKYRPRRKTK"}
{"Oligonucleotide": "GTATGTT", "relative binding energy": "0.386 ln ratio"}
{"Oligonucleotide": "CATTCGC", "relative binding energy": "0.142 ln ratio"}
{"Oligonucleotide": "AAGTGTT", "relative binding energy": "-0.544 ln ratio"}
{"Oligonucleotide": "CATCCTG", "relative binding energy": "0.703 ln ratio"}
{"Oligonucleotide": "CATGATA", "relative binding energy": "0.0218 ln ratio"}
{"Oligonucleotide": "CATTCAC", "relative binding energy": "-1.4 ln ratio"}
{"Oligonucleotide": "CATCAGC", "relative binding energy": "0.671 ln ratio"}
{"Oligonucleotide": "ATAAGTT", "relative binding energy": "0.163 ln ratio"}
{"data": "Study 2", "SMILES": "Nc1[nH]nc2nc3ccccc3nc12", "read-out": "enzyme activity", "mode": "inhibitor", "tested at": "0.5 µM", "reference": "control"}
{"target": "FGFR1 (Homo sapiens, UniProt P11362)", "remaining activity": "93.9%"}
{"target": "NEK6 (Homo sapiens, UniProt Q9HC98)", "remaining activity": "95.5%"}
{"target": "MAPKAPK2 (Homo sapiens, UniProt P49137)", "remaining activity": "105%"}
{"target": "ACVR1B (Homo sapiens, UniProt P36896)", "remaining activity": "99.9%"}
{"target": "TAOK2 (Homo sapiens, UniProt Q9UL54)", "remaining activity": "103%"}
{"target": "WEE1 (Homo sapiens, UniProt P30291)", "remaining activity": "101%"}
{"target": "TEK (Homo sapiens, UniProt Q02763)", "remaining activity": "97%"}
{"target": "RPS6KA2 (Homo sapiens, UniProt Q15349)", "remaining activity": "89.1%"}
{"target": "MERTK (Homo sapiens, UniProt Q12866)", "remaining activity": "92.9%"}
{"target": "FGFR3 (Homo sapiens, UniProt P22607)", "remaining activity": "96.5%"}
{"target": "EPHA3 (Homo sapiens, UniProt P29320)", "remaining activity": "95.2%"}
{"data": "Study 3", "Structure (SMILES)": "O=c1nc(-c2ccccn2)sc2ccccc12", "technique": "competition with immobilised ligand", "tested at": "1 µM"}
{"target": "TGFBR1 (Homo sapiens, UniProt P36897)", "read-out": "cell-free assay", "remaining binding": "97%"}
{"target": "Tyrosine-protein kinase ABL1, phosphorylated (ABL1, Homo sapiens, UniProt P00519)", "read-out": "binding", "remaining binding": "89%"}
{"target": "BRSK1 (Homo sapiens, UniProt Q8TDC3)", "read-out": "binding", "remaining binding": "91%"}
{"target": "Tyrosine-protein kinase JAK1, JH1 (JAK1, Homo sapiens, UniProt P23458)", "read-out": "binding", "remaining binding": "71%"}
{"target": "CSNK1G3 (Homo sapiens, UniProt Q9Y6M4)", "read-out": "cell-free assay", "remaining binding": "100%"}
{"data": "Study 4", "target": "RING finger protein unkempt homolog, zinc fingers 1-6, GST-SBP tag (UNK, Homo sapiens, UniProt Q9C0B0, residues 30-357)", "technique": "RNA Bind-n-Seq", "molecule type": "RNA", "medium": "in vitro", "tested at": "not given", "notes": "RNA with constant flanks, human and mouse sites, ends assumed", "reference": "input RNA pool", "direction": "higher = stronger binding", "constant ends, left off below": "GGGAGUUCUACAGUCCGACGAUC … CAACAGAGGAUUGAGCAUCA", "sequence of UniProt Q9C0B0 (30-357, looked up)": "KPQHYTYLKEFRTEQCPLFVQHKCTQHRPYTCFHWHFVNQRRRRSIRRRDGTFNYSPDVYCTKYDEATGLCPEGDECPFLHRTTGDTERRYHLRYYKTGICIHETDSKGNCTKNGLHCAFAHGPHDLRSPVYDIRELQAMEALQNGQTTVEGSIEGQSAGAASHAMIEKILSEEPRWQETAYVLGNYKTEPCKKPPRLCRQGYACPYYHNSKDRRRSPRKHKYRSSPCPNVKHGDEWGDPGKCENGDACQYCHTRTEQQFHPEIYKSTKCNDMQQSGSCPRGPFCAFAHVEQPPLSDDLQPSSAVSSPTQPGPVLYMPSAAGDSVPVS"}
{"Oligonucleotide": "GGACAUUCUUGAGGUUUAACCUUGAUCCCUUGUGCUUCGGGCCCCAGCCUGUUGCUUGUGUUAGCAGAGGUUUGGUCAGCUCUGUGCCACUGCUCCAGAGAAGUACUACUCACUGGCCUG", "bound/input enrichment": "0.119 ratio"}
{"Oligonucleotide": "UUUUAUUGAUCAGGUCUGUAAAUGUGUACUAAAAAAAUCAGAGUUUAUUUAUAAACAAAAUAGUUUAUUUAAAGAGAAGGUCUCUUCCUUAUUGAUAUCAUGGUAUGCAUUAAUUCCAUU", "bound/input enrichment": "8.31 ratio"}
{"Oligonucleotide": "GUCAAAAGUACCCUGAUGGAAAUUAUUUUUUUUAGUCUGCGUUUGACAGUUUUUCAUUUUAACAAGUACUACACAGGUUCUGUUUUGGUGUAGGUGUGAUGGCGCUUUUACUACCAGGUU", "bound/input enrichment": "2.02 ratio"}
{"Oligonucleotide": "AAGAAAUACAAACAGGACAGUAAGAAGGAAGAGCAGGCCGCAUCUGCUGCUGCAGAAGACACAUGUGAUGUAGGCGUGAGCUCCGAUGAUGACAAGGGGGCCCAGGCAGCACGAGGAUCU", "bound/input enrichment": "0.28 ratio"}
{"Oligonucleotide": "GCGCGAGCAGAGCGCGGUUGACCUCCCUUUCUCUGCUCAGCUCCAGCGUCAUUUCGGCCUCUUAGUUCUUCUGAACCCUGCUCCUGAGCUAGGUAGGAAACAUGAGCGGCACCAACUUGG", "bound/input enrichment": "0.0377 ratio"}
{"Oligonucleotide": "CUCUCCCCUGAUAUCUGGAUGUAUAUUCUGCUGGCUUACUUGGGUGUCAGUUGUGUGCUCUUUGUCAUAGCCAGGUUUAGUCCUUAUGAGUGGUAUAAUCCACACCCUUGCAACCCUGAC", "bound/input enrichment": "1.22 ratio"}
{"Oligonucleotide": "UAUAGCAAGAUUGUUUGCAUACUUUUGUAAUGAAGGGGAGUGUCCAGUGGAAGGAUUUUUAAAAUUAUCUUAUGGAUAGCUCAAGUCUCUGCCAUUUGUAAUUUUUGGCUCUAAGCUCCG", "bound/input enrichment": "0.612 ratio"}
{"Oligonucleotide": "AUCCCCAAUGUUCUGCGCCGCAUUCGGGAGUCUUUCUUUCGCGUGGUGCCGCAGUUUGUAGUGUUUUAUCUUAUCUACACAUGGGGGACUGAAGAGUUCGAGAGAUCCAAGAGGAAGAAU", "bound/input enrichment": "0.218 ratio"}
{"note": "Some of these lines once more (study 4):"}
{"Oligonucleotide": "CUCUCCCCUGAUAUCUGGAUGUAUAUUCUGCUGGCUUACUUGGGUGUCAGUUGUGUGCUCUUUGUCAUAGCCAGGUUUAGUCCUUAUGAGUGGUAUAAUCCACACCCUUGCAACCCUGAC", "bound/input enrichment": "1.22 ratio"}
{"Oligonucleotide": "UAUAGCAAGAUUGUUUGCAUACUUUUGUAAUGAAGGGGAGUGUCCAGUGGAAGGAUUUUUAAAAUUAUCUUAUGGAUAGCUCAAGUCUCUGCCAUUUGUAAUUUUUGGCUCUAAGCUCCG", "bound/input enrichment": "0.612 ratio"}
